Published values gathered from unrelated publications.
Parts stem from different laboratories: compare values within a part only. Positions count from the first letter of the parent shown.

Series 1 — target: CCNF, cyclin fold, Cln2 fusion (human); method: yeast growth competition, sequencing; medium: yeast; setting: weak parent motif; reference: not given; direction: higher = stronger binding
Starting sequence: E2F8 docking peptide (human); FVPQRKLEVSTED
Variant	normalised enrichment score
FVPQRKLEFSTED [V9F]	6.91
FVPQKKLELSTED [R5K V9L]	0.481
FVPARKLEVSTED [Q4A]	-0.397
FVPQRKLEVSTEA [D13A]	0.275
FVPQRKLEVSAED [T11A]	0.101
FVAQRKLEVSTED [P3A]	0.748
FVPQRKLEASTED [V9A]	-0.445
AVPQRKLEVSTED [F1A]	0.337

Series 2 — method: protein-binding microarray; molecule type: double-stranded DNA, one strand shown; medium: in vitro; tested at: 2540 nM top; setting: 60-bp whole probe; added: salmon DNA 0.4 mg/ml; reference: random background probes; direction: higher = stronger binding; constant ends, left off below: GCCTAGCAC … GTCTTGATTCGCTTGACGCTGCTG
Target: Interferon regulatory factor 3, full length, phosphomimetic (IRF3, Homo sapiens, UniProt Q14653, residues 1-427, S386D/S396D/S398D/S402D/T404D/S405D)
Construct (chain): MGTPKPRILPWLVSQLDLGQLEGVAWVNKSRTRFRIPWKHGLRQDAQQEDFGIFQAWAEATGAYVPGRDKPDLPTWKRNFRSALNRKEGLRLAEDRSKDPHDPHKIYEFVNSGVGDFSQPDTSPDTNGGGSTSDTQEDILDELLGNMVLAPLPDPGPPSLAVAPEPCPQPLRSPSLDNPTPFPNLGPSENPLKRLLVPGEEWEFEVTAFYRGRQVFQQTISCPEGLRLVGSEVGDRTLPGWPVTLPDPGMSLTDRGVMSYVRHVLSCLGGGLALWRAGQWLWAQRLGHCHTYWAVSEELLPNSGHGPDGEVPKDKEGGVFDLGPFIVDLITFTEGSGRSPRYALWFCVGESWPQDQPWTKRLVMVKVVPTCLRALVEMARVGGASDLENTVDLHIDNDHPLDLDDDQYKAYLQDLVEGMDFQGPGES
Strand	fitted relative affinity [z-score]
GGAAGTCCCATGTTGCAGACTGTGCTA	0.111
GCCGGTCTCGGTATCGGGACGTGCTAG	2.57
GACGATATCGGGACTGGAGAAGTGCTA	0.216
GACGGTCTCGGTTTCGGCACGTGCTAG	3.3
TCACACATCTCACTCTAACTGTGCTAG	0.634
TCAATTTTTGCTTACGAACTGTGCTAG	0.219
GACGGTTTCGACACTGGGGCCGTGCTA	2.83
TTAGAACTGGGGTTTCCATTAGTGCTA	1.25
GACGAACTTGGGTATCGAGACGTGCTA	-0.236
AACGATATCGGGTATCGAGACGTGCTA	0.222
TCAGGTTTACCAGATCATCTGGTGCTA	0.623
TCACACTCCAGTCTGGGACTGTGCTAG	0.769
TTATGTCTCGGTTTCGGTTAGTGCTAG	5.23
GACGGACTGGGGACTCGGGACGTGCTA	-0.895
GACTAACTGGGGACTGGAGACGTGCTA	-0.403
TTAGGACTGGGGTTACGGTTAGTGCTA	-0.619
TCATATATATGTGTATAACTGTGCTAG	0.625

Series 3 — target: JUND, bZIP domain (human); method: DHFR protein complementation; medium: yeast; reference: wild-type JUN-FOS pair; direction: higher = stronger binding
Setting: single substitutions, most at no-binding floor
Starting sequence: JUN, bZIP domain (human); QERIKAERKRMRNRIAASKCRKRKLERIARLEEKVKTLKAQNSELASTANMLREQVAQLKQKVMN; partner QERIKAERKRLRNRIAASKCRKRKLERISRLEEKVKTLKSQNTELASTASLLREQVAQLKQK
Variant	binding fitness
A49R	-1.17 natural log
A46S	-0.755 natural log
E33S	-0.936 natural log
E32Q	-1.01 natural log
A49S	-0.966 natural log
K34M	-0.371 natural log
R30F	-0.667 natural log
V56F	-1.05 natural log
S43K	-0.344 natural log
E54Q	-0.944 natural log
E33K	-0.778 natural log
A29D	-1.06 natural log

Further values, each from its own experiment
Substance	target	assay	system	conditions	how to read	measurement	value
PhoQ, residues 284 288 289 292 302 303 AGGLSV	PhoP, residues 12 14 15 18 19 STHWV (Escherichia coli, UniProt P23836)	Sort-seq, item: YFP reporter	E. coli	PhoQ-PhoP variant library, added: 10 µM Mg2+	reference: high Mg2+ state, higher = stronger signaling	fold induction	1.58
